Results gathered from unrelated publications.
Each numbered part is a random draw from the data of one study; scales do not carry over between parts.

Block 1 — technique: RNA Bind-n-Seq; molecule type: RNA; sample: in vitro; tested at: 20 nM; setting: 6-mer, flanks averaged, single round; together with: 150 mM LiCl; reference: input library; direction: higher = stronger binding
Target: TAR DNA-binding protein 43, full length, His tag (TARDBP, Homo sapiens, UniProt Q13148, residues 1-414)
| Strand | 6-mer enrichment (R) |
| --- | --- |
| UUUAUU | 1.34 |
| AGAAGU | 0.967 |
| GCAUAC | 0.844 |

Block 2 — technique: protein-binding microarray; molecule type: double-stranded DNA, one strand shown; sample: in vitro; tested at: 2540 nM top; setting: 60-bp whole probe; together with: salmon DNA 0.4 mg/ml; reference: random background probes; direction: higher = stronger binding
Target: Interferon regulatory factor 3, full length, phosphomimetic (IRF3, Homo sapiens, UniProt Q14653, residues 1-427, S386D/S396D/S398D/S402D/T404D/S405D)
Chain of UniProt Q14653 (whole entry, unmodified, looked up): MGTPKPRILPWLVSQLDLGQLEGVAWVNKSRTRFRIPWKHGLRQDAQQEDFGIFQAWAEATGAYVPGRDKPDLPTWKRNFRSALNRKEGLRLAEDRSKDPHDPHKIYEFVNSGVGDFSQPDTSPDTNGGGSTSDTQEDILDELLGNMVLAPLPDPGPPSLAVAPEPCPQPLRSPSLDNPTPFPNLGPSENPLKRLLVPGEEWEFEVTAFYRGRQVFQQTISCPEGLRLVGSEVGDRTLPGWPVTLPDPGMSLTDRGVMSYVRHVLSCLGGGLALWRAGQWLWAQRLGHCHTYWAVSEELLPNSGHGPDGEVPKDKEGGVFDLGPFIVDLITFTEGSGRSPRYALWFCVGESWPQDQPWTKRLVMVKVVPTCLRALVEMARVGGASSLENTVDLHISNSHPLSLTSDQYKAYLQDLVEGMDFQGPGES
| Strand | fitted relative affinity |
| --- | --- |
| GCCTAGCACTTAGGTATCCTTATCCTGTAGTGCTAGGTCTTGATTCGCTTGACGCTGCTG | 4.77 z-score |
| GCCTAGCACTTTCCTTCCTCTTTTACCCCGTGCTAGGTCTTGATTCGCTTGACGCTGCTG | 8.49 z-score |
| GCCTAGCACGACGGTTCCGGGTATCGGGACGTGCTAGTCTTGATTCGCTTGACGCTGCTG | 1.47 z-score |

Block 3 — technique: universal PBM; molecule type: double-stranded DNA, one strand shown; sample: in vitro; tested at: not given; direction: higher = stronger binding
Target: Sal-like protein 4, full length isoform B (SALL4, Homo sapiens, UniProt Q9UJQ4-2, residues 1-616)
Setting: 8-mer, flanks averaged, mean of replicates
| Strand | E-score |
| --- | --- |
| TCTTCACA | 0.128 |
| AAAAATCC | 0.116 |
| CTACATAG | 0.162 |

Further values, each from its own experiment
| Molecule | target | assay | test system | conditions | scale | measurement | value |
| --- | --- | --- | --- | --- | --- | --- | --- |
| PhoQ, residues 284 288 289 292 302 303 ASASEQ | PhoP, residues 12 14 15 18 19 LYHSL (Escherichia coli, UniProt P23836) | Sort-seq, measured: YFP reporter | E. coli | PhoQ-PhoP variant library, together with: 10 µM Mg2+ | reference: high Mg2+ state, higher = stronger signaling | fold induction | 6.49 |
